Experimental data gathered from unrelated publications.
Numbered parts are unrelated; each lists some results of a single study. Positions count from the first letter of the parent shown.

Study 1 — method: protein binding microarray; molecule type: double-stranded DNA, one strand shown; matrix: in vitro; concentration: not given; reference: not given; direction: higher = stronger binding
Target: Histone acetyltransferase KAT6A, both winged helices, GST fusion (KAT6A, Homo sapiens, UniProt Q92794, residues 1-181)
Notes: 8-mer, flanks averaged, mean of 2 arrays, mostly near background
Residues (chain): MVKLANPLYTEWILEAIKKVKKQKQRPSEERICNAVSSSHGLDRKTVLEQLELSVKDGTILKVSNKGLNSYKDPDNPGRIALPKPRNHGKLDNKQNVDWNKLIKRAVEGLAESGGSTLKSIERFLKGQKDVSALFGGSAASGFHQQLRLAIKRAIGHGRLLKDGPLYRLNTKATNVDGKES
| Oligonucleotide | E-score |
| --- | --- |
| CTCTTGTA | -0.205 |
| ATTCTCCC | -0.265 |
| AACGATGC | -0.041 |
| AGTTATGA | -0.131 |
| ATTTGTTG | -0.071 |
| GCCAGAAA | -0.21 |

Study 2 — target: CCNE1, cyclin fold, Cln2 fusion (human); method: yeast growth competition, sequencing; matrix: yeast; notes: strong parent motif; reference: not given; direction: higher = stronger binding
Starting sequence: NPAT docking peptide (human); PCHRRVLCFDSTT
| Variant | normalised enrichment score |
| --- | --- |
| C2A | 2.04 |
| R4A | 1.74 |
| P1A | 2.05 |

Study 3 — method: RNA Bind-n-Seq; molecule type: RNA; matrix: in vitro; concentration: 365 nM; reference: no-protein control; direction: higher = stronger binding
Target: RNA binding protein fox-1 homolog 2, RRM domain, GST-SBP tag (RBFOX2, Homo sapiens, UniProt O43251-10, residues 100-194)
Notes: natural RNA segment, single round, ends assumed
Constant ends, left off below: GGGAGUUCUACAGUCCGACGAUC … UGGAAUUCUCGGGUGCCAA
Construct (chain): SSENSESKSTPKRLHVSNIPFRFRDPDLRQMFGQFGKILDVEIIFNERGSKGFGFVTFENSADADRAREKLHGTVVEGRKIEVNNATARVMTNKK
| Oligonucleotide | RBNS enrichment (R) |
| --- | --- |
| UUUUUUCUCUUUUCCUUGAUGGACCAACAGUGCAAAUGCAAUCUCGCCAUUUAACUUUCAGGUCGAUUUCCUUUCCUGAUCAGACAUCUUUGUGCCCCCUUUAGGAAGGA | 0.327 |
| AACUUCCCAGCACCUGGACAUCUCUUCCAGAGUUAUCCCACUGGCUUGGUGUGUAUACAUUAGGGGAGGAUAAUCUGAUGCUAACUUUUUUUUUCUCUUUGGUUCUUGAA | 0.686 |
| CCUUGCUGAGUGAAACCAACUCAUUUCUGAUUGGGCACAAAGAACUGCAUUCUUUGGACGUGUGAAUCCAUGUUCCUCUUCCUCUGGCCACUGAACACCUCCACCAGCUC | 0.405 |
| UUGCUAGGGGUGAAAGCAUUACAGAGAGAUGGAGCCAUCUAUCCAAGAAGCCUUCACUCACCUUCACUGCUGCUGUUGCAACUCGGCUGUUCUGGACUCUGAUGUGUGUG | 0.945 |
| AUUGCCUCUUUUUGUACAGAACUUUUGAGUGUGAAAUGAAAAUUAAAGUUUGGUACAUACACAGUUUAAAAUCAUGUUUGUAUAUGAUGCAUAGGCAAAAUGGAUGGCCC | 1.2 |
| AACACUAAAAUGGAUUAGAAUUAUCUUAAAAGAUCCUUUAUAAAAUGACUUGUAUUGAUUGGUUUAUAACUUCACACAGGGGUGACAUAAAUGUAUAUCUUGAAAAAGAU | 0.597 |
| AAGUGCAACCUUGUUUUAUCUUAUUGUUUUAUUUUUUAAGAAAGGAAAUCAUGUUCUUUUUUUAUAUCUCUAUAUAUAAGAUACAGAGUUGUUUGGUAAGGUUUGGGGUG | 0.388 |
| GGAGGCAUGUGCCUUGGGAAAAUAGGAAUUGUGUGUUUGUUUUUGUUUUUGUUUUUGUUUUUUUCUGGAUAAGGAAAACAGAGAACAACAAUAGAUACCGCUGAAGGAUC | 0.634 |

Mixed results
| Substance | target | test | test system | setting | scale | quantity | result |
| --- | --- | --- | --- | --- | --- | --- | --- |
| PhoQ, residues 284 288 289 292 302 303 AEGLLW | PhoP, residues 12 14 15 18 19 IFFTR (Escherichia coli, UniProt P23836) | Sort-seq, refers to: YFP reporter | E. coli | PhoQ-PhoP variant library, together with: 10 µM Mg2+ | reference: high Mg2+ state, higher = stronger signaling | fold induction | 12.3 |

A few entries again (study 1):
| Oligonucleotide | E-score |
| --- | --- |
| ATTCTCCC | -0.265 |
| AGTTATGA | -0.131 |
| AACGATGC | -0.041 |
